Published values collected from several papers.
Compare with care: the assays were run in different laboratories.
Organism: Staphylococcus aureus

For `CCCCCCCCCCCC(=O)Oc1c(C)c(OC)c2c(c1C)OC(=O)[C@@H](CCCCCCCCCC)[C@]2(O)/C=C/c1ccccc1` (relative stereo), the MIC was 1250 µg/mL (microbial growth, broth dilution; ATCC25923).
With `CN[C@H](CC(C)C)C(=O)N[C@H]1C(=O)N[C@@H](CC(N)=O)C(=O)N[C@H]2C(=O)N[C@H]3C(=O)N[C@H](C(=O)N[C@H](C(=O)O)c4cc(O)cc(O)c4-c4cc3ccc4O)[C@H](O)c3ccc(c(Cl)c3)Oc3cc2cc(c3O[C@@H]2O[C@H](CO)[C@@H](O)[C@H](O)[C@H]2O[C@H]2C[C@](C)(NCc3ccc(-c4ccc(Cl)cc4)cc3)[C@H](O)[C@H](C)O2)Oc2ccc(cc2Cl)[C@H]1O` the MIC was 4 µg/mL (VRS2 (VanA VRSA)).
With `CCCCCCCCCC[N+](C)(C)CCCCCCOc1cc(OCCCCCC[N+](C)(C)CCCCCCCCCC)cc(OCCCCCC[N+](C)(C)CCCCCCCCCC)c1.[Br-].[Br-].[Br-]` the MIC was 1 µM (SH1000 MSSA).
With `CC[C@H]1OC(=O)[C@H](C)[C@@H](O[C@H]2C[C@@](C)(OC)[C@@H](O)[C@H](C)O2)[C@H](C)[C@@H](O[C@@H]2O[C@H](C)C[C@H](N(C)C)[C@H]2O)[C@](C)(O)C[C@@H](C)C(=O)[C@H](C)[C@@H](O)[C@]1(C)O` the MIC was 0.5 µg/mL (DSM 20231 MSSA).
`CCCCCC[N+](C)(C)CCCCOc1cc(OCCCC[N+](C)(C)CCCCCC)cc(OCCCC[N+](C)(C)CCCCCC)c1.[Br-].[Br-].[Br-]` has an MIC of 32 µM (SH1000 MSSA).
`COc1ccc(/N=N/C(=S)N2CCCCC2)cc1` has an MIC of greater than 50 µM (microbial growth, broth dilution; ATCCBAA44 MRSA; 24 h).
The MIC of `CCCCCCC#Cc1cncc(-c2nnc(SCc3ccc(Cl)cc3)n2C)c1` is reported as greater than 64 µg/mL (microbial growth, broth dilution; MRSA).
With `C#CCNC(=O)[C@H]1NC(=O)[C@H]2NC(=O)[C@H](NC(=O)[C@@H]3NC(=O)[C@H](CC(N)=O)NC(=O)[C@H](NC(=O)[C@@H](CC(C)C)NC)[C@H](O)c4ccc(c(Cl)c4)Oc4cc3cc(c4O[C@@H]3O[C@H](CO)[C@@H](O)[C@H](O)[C@H]3O[C@H]3C[C@](C)(N)[C@H](O)[C@H](C)O3)Oc3ccc(cc3Cl)[C@H]2O)c2ccc(O)c(c2)-c2c(O)cc(O)cc21` the MIC was 0.5 µg/mL (broth microdilution; MSSA ATCC 29213, cation-adjusted Mueller-Hinton broth; 20 to 24 h, 37 °C, 0.002% polysorbate 80).
For `COc1cccc(OC)c1C(=O)N[C@@H]1C(=O)N2[C@@H]1SC(C)(C)[C@@H]2C(=O)O`, the MIC was 4 µM (microbial growth, broth dilution; 43300).
With `CCCCCCn1cc[n+](CCCCCCCCCCOc2cc(OCCCCCCCCCC[n+]3ccn(CCCCCC)c3)cc(OCCCCCCCCCC[n+]3ccn(CCCCCC)c3)c2)c1.[Br-].[Br-].[Br-]` the MIC was 8 µM (HA-MRSA ATCC 33591).
With `CC[C@H]1OC(=O)[C@H](C)[C@@H](OC(=O)Cc2cccc(Cl)c2)[C@H](C)[C@@H](O[C@@H]2O[C@H](C)C[C@H](N(C)C)[C@H]2O)[C@](C)(OC)C[C@@H](C)C(=O)[C@H](C)[C@@H](O)[C@]1(C)O` the MIC was greater than 64 µg/mL (ATCC 43300 MRSA).
`C[C@@H]1C(=O)O[C@@H](C)/C=C/C=C\[C@@H](C)[C@@H]2C=C[C@@H]3C[C@@]4(C)O[C@H]4[C@@H](C)[C@H]3[C@@H]2C(=O)C(Cl)(Cl)C1=O` has an MIC of 0.0125 µg/mL (MRSA clinical isolate; resistant, ERY, CLI, TET, OXA, SXT).
For `CC(C)C/C=C/C=C\C(=O)N[C@@H](CC(N)=O)C(=O)N[C@@H]1C(=O)N[C@H](c2ccc(O)cc2)C(=O)N[C@H](CCCN)C(=O)N[C@H]([C@@H](C)O)C(=O)N[C@@H](c2ccc(O)cc2)C(=O)N[C@H](c2ccc(O)cc2)C(=O)N[C@@H]([C@H](C)O)C(=O)N[C@@H](Cc2ccccc2)C(=O)N[C@H](CCCN)C(=O)N[C@@H](c2ccc(O[C@H]3O[C@H](CO)[C@@H](O)[C@H](O)[C@@H]3O[C@H]3O[C@H](CO)[C@@H](O)[C@H](O)[C@@H]3O)cc2)C(=O)N[C@H]([C@@H](C)O)C(=O)N[C@@H](c2ccc(O)cc2)C(=O)NCC(=O)N[C@@H](CC(C)C)C(=O)N[C@H](C)C(=O)N[C@@H](c2ccc(O)c(Cl)c2)C(=O)O[C@@H]1C(N)=O`, the MIC was 2.6 µg/mL (broth microdilution; MSSA ATCC 29213).
`CC[C@H](C)[C@H](N)C1=N[C@H](C(=O)N[C@@H](CC(C)C)C(=O)N[C@H](CCC(=O)O)C(=O)N[C@H](C(=O)N[C@H]2CCCCNC(=O)[C@H](CC(N)=O)NC(=O)[C@@H](CC(=O)O)NC(=O)[C@H](Cc3c[nH]cn3)NC(=O)[C@@H](Cc3ccccc3)NC(=O)[C@H]([C@@H](C)CC)NC(=O)[C@@H](CCCN)NC2=O)[C@@H](C)CC)CS1` has an MIC of 16 µg/mL (ATCC 29213 MSSA; LB without zinc).
`C#CCOc1ccc(CN[C@@]2(C)C[C@H](O[C@H]3[C@H](Oc4c5cc6cc4Oc4ccc(cc4Cl)[C@@H](O)[C@@H](NC(=O)[C@@H](CC(C)C)NC)C(=O)N[C@@H](CC(N)=O)C(=O)N[C@H]6C(=O)N[C@H]4C(=O)N[C@H](C(=O)N[C@H](C(=O)N[C@@H](CCCNC(=N)N)C(N)=O)c6cc(O)cc(O)c6-c6cc4ccc6O)[C@H](O)c4ccc(c(Cl)c4)O5)O[C@H](CO)[C@@H](O)[C@@H]3O)O[C@@H](C)[C@H]2O)cc1OC` gave an MIC of 0.5 µg/mL (broth microdilution; MRSA USA300, cation-adjusted Mueller-Hinton broth; 20 to 24 h, 37 °C, 0.002% polysorbate 80).
The MIC of `C=C1CNCC2Nc3c(F)cc(Br)cc3C12CCNS(=O)(=O)c1ccc(Cl)cc1` (stereo not shown) is reported as 8 µg/mL (MRSA ATCC BAA-44; compound alone).
`CC[C@H]1OC(=O)[C@H](C)[C@@H](OC(=O)Cc2ccc(OC)cc2)[C@H](C)[C@@H](O[C@@H]2O[C@H](C)C[C@H](N(C)C)[C@H]2O)[C@](C)(OC)C[C@@H](C)C(=O)[C@H](C)[C@@H](O)[C@]1(C)O` has an MIC of greater than 64 µg/mL (ATCC 43300 MRSA).
`CCCCCCCCCCn1cc[n+](CCCCCCOc2cc(OCCCCCC[n+]3ccn(CCCCCCCCCC)c3)cc(OCCCCCC[n+]3ccn(CCCCCCCCCC)c3)c2)c1.[Br-].[Br-].[Br-]` gave an MIC of 2 µM (SH1000 MSSA).
`CC[C@H](C)[C@H](NC(=O)[C@@H](CCCNC(=N)N)NC(=O)[C@H](CCCNC(=N)N)NC(=O)[C@@H]1CCCN1C(=O)[C@@H]1CCCN1C(=O)[C@H](CCCCN)NC(=O)[C@@H]1CCCN1C(=O)[C@H](CCCNC(=N)N)NC(=O)[C@@H]1CCCN1C(=O)[C@H](CC(C)C)NC(=O)[C@H](Cc1ccc(O)cc1)NC(=O)[C@@H]1CCCN1C(=O)[C@@H]1CCCN1C(=O)[C@H](CCCCN)NC(=O)[C@H](CC(=O)O)NC(=O)[C@@H](N)C(C)C)C(=O)N[C@@H](Cc1ccc(O)cc1)C(=O)N[C@@H](CC(N)=O)C(=O)N[C@H](CCCNC(=N)N)C(N)=O` has an MIC of greater than 128 µg/mL (broth microdilution; DSM 6247; 18 h, 37 °C, 25% MHB2).
For `CCCCCCCCCCCC[N+](C)(C)CCCCCCCCCCOc1cc(OCCCCCCCCCC[N+](C)(C)CCCCCCCCCCCC)cc(OCCCCCCCCCC[N+](C)(C)CCCCCCCCCCCC)c1.[Br-].[Br-].[Br-]`, the MIC was 32 µM (SH1000 MSSA).
The MIC of `CCCCCCCCCCCCCCCCCCn1cc(CN(CCC(=O)NCCN(CCC(=O)NCCN(CCC(=O)NCCN(C)C)CCC(=O)NCCN(C)C)CCC(=O)NCCN(CCC(=O)NCCN(C)C)CCC(=O)NCCN(C)C)CCC(=O)NCCN(CCC(=O)NCCN(CCC(=O)NCCN(C)C)CCC(=O)NCCN(C)C)CCC(=O)NCCN(CCC(=O)NCCN(C)C)CCC(=O)NCCN(C)C)nn1` is reported as greater than 96 µg/mL (ATCC 25904 MSSA, LB broth; 18 h).
With `CC[C@H]1OC(=O)[C@H](C)C(=O)[C@H](C)[C@@H](O[C@@H]2O[C@H](C)C[C@H](N(C)C)[C@H]2O)[C@](C)(OC)C[C@@H](C)C(=O)[C@H](C)[C@H]2N(CCCCn3cnc(-c4cccnc4)c3)C(=O)O[C@]12C` the MIC was 4 µg/mL (BAA-977).
For `COc1cc(C(=O)Nc2ccc(C(=O)O)c(O)c2OC)ccc1NC(=O)c1ccc(NC(=O)[C@H](Cc2c[nH]nn2)NC(=O)c2ccc(NC(=O)/C(C)=C/c3ccc(O)cc3)cc2)cc1`, the MIC was 4 µg/mL (broth microdilution; ciprofloxacin-sensitive).
`O=[N+]([O-])c1c(Br)c(Cl)c2cccnc2c1O` gave an MIC of 8 µg/mL (broth microdilution; ATCC 43300 MRSA).
For `CCCCCCCC[N+](C)(C)CCCCCCCCOc1cc(OCCCCCCCC[N+](C)(C)CCCCCCCC)cc(OCCCCCCCC[N+](C)(C)CCCCCCCC)c1.[Br-].[Br-].[Br-]`, the MIC was 1 µM (CA-MRSA USA300-0114).
For `CC[C@H]1OC(=O)[C@H](C)[C@@H](OC(=O)Cc2ccc(C(F)(F)F)cc2)[C@H](C)[C@@H](O[C@@H]2O[C@H](C)C[C@H](N(C)C)[C@H]2O)[C@](C)(OC)C[C@@H](C)C(=O)[C@H](C)[C@@H](O)[C@]1(C)O`, the MIC was 8 µg/mL (microbial growth; BAA976).
The MIC of `COc1nc(C(=O)O)ccc1NC(=O)c1ccc(NC(=O)c2ccc(NC(=O)[C@H](Cc3c[nH]nn3)NC(=O)c3ccc(NC(=O)/C(C)=C/c4ccc(O)cc4)cc3)cc2)c(OC)c1O` is reported as 16 µg/mL (broth microdilution; ciprofloxacin-resistant).
With `CC[C@H]1OC(=O)[C@H](C)[C@@H](OC(=O)Cc2ccc3c(c2)OCO3)[C@H](C)[C@@H](O[C@@H]2O[C@H](C)C[C@H](N(C)C)[C@H]2O)[C@](C)(OC)C[C@@H](C)C(=O)[C@H](C)[C@@H](O)[C@]1(C)O` the MIC was 0.5 µg/mL (microbial growth; BAA976).
`CC(C)C[C@@H]1NC(=O)[C@@H](CC(C)C)NC(=O)[C@H](CCN)NC(=O)[C@@H](NC(=O)[C@H](CCN)NC(=O)[C@@H](N)[C@@H](C)O)CCNC(=O)[C@H]([C@@H](C)O)NC(=O)[C@H](CCN)NC(=O)[C@H](CCN)NC1=O` gave an MIC of greater than 138 µM (MSSA ATCC 29213).
For `CC[C@H]1OC(=O)[C@H](C)[C@@H](OC(=O)Cc2cccc([N+](=O)[O-])c2)[C@H](C)[C@@H](O[C@@H]2O[C@H](C)C[C@H](N(C)C)[C@H]2O)[C@](C)(OC)C[C@@H](C)C(=O)[C@H](C)[C@@H](O)[C@]1(C)O`, the MIC was 0.5 µg/mL (BAA-977).
With `COc1cc(C(=O)O)ccc1NC(=O)c1ccc(NC(=O)c2ccc(NC(=O)[C@H](Cc3c[nH]nn3)NC(=O)c3ccc(NC(=O)/C(C)=C/c4ccc(O)cc4)cc3)cc2)c(OC)c1` the MIC was 4 µg/mL (broth microdilution; ciprofloxacin-sensitive).
`N=C(N)NCCC[C@@H]1NC(=O)[C@H](CCCNC(=N)N)NC(=O)[C@@H](CCCNC(=N)N)NC(=O)[C@@H](CCCNC(=N)N)NC(=O)[C@@H](C(c2ccccc2)c2ccccc2)NC(=O)[C@@H](Cc2c[nH]c3ccccc23)NC(=O)[C@@H](C(c2ccccc2)c2ccccc2)NC1=O` has an MIC of 4 µg/mL (ATCC 29213, MSSA).
`CCCCCCCCCCn1cc[n+](CCCCOc2cc(OCCCC[n+]3ccn(CCCCCCCCCC)c3)cc(OCCCC[n+]3ccn(CCCCCCCCCC)c3)c2)c1.[Br-].[Br-].[Br-]` has an MIC of 1 µM (CA-MRSA USA300-0114).
`COc1cc(C(=O)Nc2ccc(C(=O)O)c(O)c2)ccc1NC(=O)c1ccc(NC(=O)[C@H](Cc2c[nH]nn2)NC(=O)c2ccc(NC(=O)/C(C)=C/c3ccc(O)cc3)cc2)cc1` has an MIC of 8 µg/mL (broth microdilution; ciprofloxacin-resistant).

For quick reference, copied from above:
For `CCCCCCCC[N+](C)(C)CCCCCCCCOc1cc(OCCCCCCCC[N+](C)(C)CCCCCCCC)cc(OCCCCCCCC[N+](C)(C)CCCCCCCC)c1.[Br-].[Br-].[Br-]`, the MIC was 1 µM (CA-MRSA USA300-0114).
For `CC[C@H]1OC(=O)[C@H](C)[C@@H](OC(=O)Cc2ccc(C(F)(F)F)cc2)[C@H](C)[C@@H](O[C@@H]2O[C@H](C)C[C@H](N(C)C)[C@H]2O)[C@](C)(OC)C[C@@H](C)C(=O)[C@H](C)[C@@H](O)[C@]1(C)O`, the MIC was 8 µg/mL (microbial growth; BAA976).
The MIC of `COc1nc(C(=O)O)ccc1NC(=O)c1ccc(NC(=O)c2ccc(NC(=O)[C@H](Cc3c[nH]nn3)NC(=O)c3ccc(NC(=O)/C(C)=C/c4ccc(O)cc4)cc3)cc2)c(OC)c1O` is reported as 16 µg/mL (broth microdilution; ciprofloxacin-resistant).
